Experimental data collected from several papers.
Each numbered part is a random draw from the data of one study; scales do not carry over between parts. Changes are numbered by the printed parent chain.

Set 1
Target: CCND3, cyclin fold, Cln2 fusion (human)
Method: yeast growth competition, sequencing
Matrix: yeast
Setting: weak parent motif
Baseline: not given
Direction: higher = stronger binding
Parent: PKMYT1 docking peptide (human); SFEPRNLLSLFED
| Variant | normalised enrichment score |
| --- | --- |
| SFEPRNLLSDFED [L10D] | 0.166 |
| KFEPRNLLSLFED [S1K] | 0.00642 |
| SFEPRNLLSLFER [D13R] | 0.0719 |
| SFEPRNLLSQFED [L10Q] | 0.0731 |
| SFEPRNLLGLFED [S9G] | 0.0567 |
| SFEPRNFLSLFED [L7F] | 0.0564 |
| SFEPRNLLSLHED [F11H] | 0.149 |
| SFEPRNLLSLFGD [E12G] | 0.0395 |
| SFEPRNLLALFED [S9A] | 0.0935 |
| CFEPRNLLSLFED [S1C] | 0.0833 |
| SEEPRNLLSLFED [F2E] | 0.0391 |
| SFEPRNLLSYFED [L10Y] | 0.083 |
| SFEPRNLVSLFED [L8V] | 0.0472 |
| SFEPRNLLSIFED [L10I] | 0.166 |
| SFEPRNLLELFED [S9E] | 0.0949 |
| SFEPRNLLSEFED [L10E] | 0.0535 |
| SFEPANALSLFED [R5A L7A] | -0.044 |
| SQEPRNLLSLFED [F2Q] | 0.0633 |
| SFEPRNLLSLFQD [E12Q] | -0.0501 |
| YFEPRNLLSLFED [S1Y] | -0.0529 |
| SFEPRLLLSLFED [N6L] | 0.0744 |
| SFEPRNQLSLFED [L7Q] | 0.0288 |
| SFGPRNLLSLFED [E3G] | 0.0321 |
| SFEPRNLLSGFED [L10G] | 0.135 |
| SFEPPNLLSLFED [R5P] | 0.05 |

Set 2
Target: ABI1, truncated, D143A, DHFR fusion (Arabidopsis thaliana, UniProt P49597)
Method: DHFR PCA, dose-response
Matrix: yeast
Setting: Hill fit, not affinity, not high confidence
Together with: (+)-ABA, dose series
Direction: lower = more sensitive
Parent: PYL1, truncated, DHFR fusion (Arabidopsis thaliana, UniProt Q8VZS8); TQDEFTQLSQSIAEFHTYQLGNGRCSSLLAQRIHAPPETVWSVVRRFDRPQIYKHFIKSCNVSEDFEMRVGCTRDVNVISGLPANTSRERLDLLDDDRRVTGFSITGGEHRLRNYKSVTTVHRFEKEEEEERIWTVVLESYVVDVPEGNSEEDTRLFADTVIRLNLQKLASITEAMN
| Variant | ABA EC50 [µM] |
| --- | --- |
| Y115P | 0.0201 |
| L138D | 29.6 |
| L169A | 840 |
| C60K | 820 |
| Q19H | 0.586 |
| S117P | 0.259 |
| L91S | 1860 |
| A84Q | 0.523 |
| P83F | 430 |
| A158C | 0.524 |
| G81P | 219 |
| S27P | 65.9 |
| L28E | 799 |
| E89K | 243 |
| V44G | 4.88 |
| V121N | 9.45 |
| R74V | 0.0364 |
| S80W | 216 |
| L169Q | 548 |
| P83T | 459 |
| V40W | 8.69 |
| E89V | 53.3 |
| S87P | 10.9 |
| D75P | 125 |
| S80V | 651 |

Set 3
Target: Centromere-binding protein 1, full length, His-tagged (CBF1, Saccharomyces cerevisiae, UniProt P17106, residues 1-351)
UniProt P17106, sequence (whole entry, looked up): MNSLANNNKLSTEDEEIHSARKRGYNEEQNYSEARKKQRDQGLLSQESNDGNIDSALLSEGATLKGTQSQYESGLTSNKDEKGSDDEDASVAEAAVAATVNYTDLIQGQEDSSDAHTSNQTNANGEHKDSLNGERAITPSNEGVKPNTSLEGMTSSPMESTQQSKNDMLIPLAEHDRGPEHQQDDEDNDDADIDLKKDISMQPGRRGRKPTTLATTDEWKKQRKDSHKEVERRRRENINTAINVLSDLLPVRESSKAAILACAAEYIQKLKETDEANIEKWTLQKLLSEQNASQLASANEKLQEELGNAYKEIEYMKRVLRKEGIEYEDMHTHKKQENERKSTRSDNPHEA
Method: competition protein-binding microarray
Molecule type: double-stranded DNA, one strand shown
Matrix: in vitro
Concentration: 2 µM
Setting: whole 60-bp probe, lowest competitor level
Together with: Pho4 competitor, 0.05 µM
Direction: higher = stronger binding
| Sequence | fluorescence intensity [a.u.] |
| --- | --- |
| TCTTCTTGCGAGGCGCTCGTGGTCGAGCCGTTCGTAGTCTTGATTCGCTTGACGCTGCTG | 67.2 |
| CCTGACAACAAGAAGAGGATTGCAGAGCTTTTAGACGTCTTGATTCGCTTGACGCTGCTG | 73.8 |
| TTATCTCAGTGGGTTTACGTGGGTATAGATTACGCTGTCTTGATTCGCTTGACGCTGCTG | 59.9 |
| AATTTCGGAGAATCTCACATGCCACTGAAGATTAAAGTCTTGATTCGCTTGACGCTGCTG | 89.8 |
| TGCGCAACAACTTTTCACGTGGGTTTATGTCTAGAAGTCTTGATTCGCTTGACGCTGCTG | 827 |
| AAATTACTAAGTTGAAAGGTGGGTGACGCCGTATGAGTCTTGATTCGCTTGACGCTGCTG | 67.8 |
| CTAACGAAGGTTTGGTAGGTGGGTGACAAGCCAAGTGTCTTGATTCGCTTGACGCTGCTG | 57.8 |
| TGCGCAACAACTTGCGTCGTGGGTGTATGTCTAGAAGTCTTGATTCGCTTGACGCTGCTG | 53.1 |
| GTCTTGTCTCATTGGATCGTGGGTGTCCCCACTTCAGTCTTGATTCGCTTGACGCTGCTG | 81.6 |
| TCATACATGTCATTGCACATGAGCATTGTAACCGGTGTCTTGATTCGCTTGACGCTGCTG | 117 |
| CGTTGGATCTAGTTCCACGTGGCCGAGCTTCAAGCCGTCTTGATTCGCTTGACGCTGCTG | 596 |
| CTTTCCCGATCTTGTCACCCGACTTTAGCACATTTGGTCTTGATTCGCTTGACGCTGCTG | 76.5 |
| CTTCTGTAAATTTTTCACGTGATTTGACGCGCCCCGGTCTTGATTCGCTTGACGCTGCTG | 4110 |

Set 4
Target: UBE2E1 UBC core domain (UniProt P51965)
UniProt P51965, sequence (whole entry, looked up): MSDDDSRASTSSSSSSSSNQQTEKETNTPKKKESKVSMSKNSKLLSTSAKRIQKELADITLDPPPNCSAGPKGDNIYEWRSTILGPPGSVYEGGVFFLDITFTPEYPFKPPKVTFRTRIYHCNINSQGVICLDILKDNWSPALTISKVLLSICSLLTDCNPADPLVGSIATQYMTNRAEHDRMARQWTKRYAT
Method: yeast two-hybrid
Matrix: yeast
Setting: mostly zero background
Baseline: not given
Direction: higher = stronger interaction
B1: RNF208 RING domain (UniProt Q9H0X6); chain SSAAAGEPLECPTCGHSYNVTQRRPRVLSCLHSVCEQCLQILYESCPKYKFISCPTCRRETVLFTDYG
B2: SH3RF2 RING domain (UniProt Q8TEC5); chain DDLTLLDLLECPVCFEKLDVTAKVLPCQHTFCKPCLQRVFKAHKELRCPECRTPVFSNIEAL
B3: TRIM5 RING domain (UniProt Q9C035); chain LREVKLSPEGQKVDHCARHGEKLLLFCQEDGKVICWLCERSQEHRGHHTFLTEEVAREYQVKL
B4: TRIML1 RING domain (UniProt Q8N9V2); chain LMENLREELTCFICLDYFSSPVTTECGHSFCLVCLLRSWEEHNTPLSCPECWRTLEGPHFQS
B5: RNF111 RING domain (UniProt Q6ZNA4); chain EGTEEDTEEKCTICLSILEEGEDVRRLPCMHLFHQVCVDQWLITNKKCPICRVDIEAQLPSE
B6: TRIM40 RING domain (UniProt Q6P9F5); chain LQKDNQEEGVCPICQESLKEAVSTNCGHLFCRVCLTQHVEKASASGVFCCPLCRKPCSEEVLG
B7: TRIM4 RING domain (UniProt Q9C037); chain EAEDIQEELTCPICLDYFQDPVSIECGHNFCRGCLHRNWAPGGGPFPCPECRHPSAPAALRP
B8: MKRN1 RING domain (UniProt Q9UHC7); chain FAVQRSKDMVCGICMEVVYEKANPSERRFGILSNCNHTYCLKCIRKWRSAKQFESKIIKSCPECRITSNFVIPSE
B9: VPS41 RING domain (UniProt P49754); chain KGVLVDEENICESCLSPILPSDAAKPFSVVVFHCRHMFHKECLPMPSMNSAAQFCNICSAKNRGPGSAI
B10: RNF38 RING domain (UniProt Q9H0F5); chain PNNHQSEQTLCVVCMCDFESRQLLRVLPCNHEFHAKCVDKWLKANRTCPICRADASEVHRDS
| Molecule | lacZ reporter activity |
| --- | --- |
| B1 (RNF208 RING domain) | 0 |
| B2 (SH3RF2 RING domain) | 0 |
| B3 (TRIM5 RING domain) | 0 |
| B4 (TRIML1 RING domain) | 0 |
| B5 (RNF111 RING domain) | 12900 |
| DHGAVGQEMCCPICCSEYVKGEVATELPCHHYFHKPCVSIWLQKSGTCPVCRCMFPPPL (PJA1 RING domain (UniProt Q8NG27)) | 0 |
| B6 (TRIM40 RING domain) | 0 |
| B7 (TRIM4 RING domain) | 0 |
| GAAPGPEAAECLVCSELALLVLFSPCQHRTVCEECARRMKKCIRCQVVVSKKLRPD (MIB2 RING domain (UniProt Q96AX9)) | 0 |
| VEPSEENSKDCVVCQNGTVNWVLLPCRHTCLCDGCVKYFQQCPMCRQFVQESFALC (CGRRF1 RING domain (UniProt Q99675)) | 0 |
| B8 (MKRN1 RING domain) | 0 |
| PAELEVQASECVVCLEREAQMIFLNCGHVCCCQQCCQPLRTCPLCRQDIAQRLRIY (LRSAM1 RING domain (UniProt Q6UWE0)) | 0 |
| QVDKAVFHMQSVKCLKCQEQKRAVLPCQHAALCELCAEGSECPICQPGRAHTLQS (UNK RING domain (UniProt Q9C0B0)) | 0 |
| MPIRALCTICSDFFDHSRDVAAIHCGHTFHLQCLIQWFETAPSRTCPQCRIQVGKRTIIN (TRAIP RING domain (UniProt Q9BWF2)) | 0 |
| B9 (VPS41 RING domain) | 0 |
| B10 (RNF38 RING domain) | 0 |

Excerpt of the above (set 2):
| Variant | ABA EC50 [µM] |
| --- | --- |
| V44G | 4.88 |
| V121N | 9.45 |
| R74V | 0.0364 |
| S80W | 216 |
| L169Q | 548 |
| P83T | 459 |
| V40W | 8.69 |
| E89V | 53.3 |
| S87P | 10.9 |
